{"data": "Results pooled from the literature", "note": "Lines come from different studies, so protocols differ. ± marks the error that the study gave."}
{"SMILES": "CCCC[C@H](NC(=O)CNC(=O)CNC(=O)CN1CCN(CC(=O)O)CCN(CC(=O)O)CCN(CC(=O)O)CC1)C(=O)N[C@H]1CC(=O)NCCCC[C@@H](C(N)=O)NC(=O)[C@H](Cc2c[nH]c3ccccc23)NC(=O)[C@H](CCCNC(=N)N)NC(=O)[C@@H](Cc2ccccc2)NC(=O)[C@H](Cc2c[nH]cn2)NC1=O [gallium-67 labelled]", "test system": "female C57 mice, B16/F1 melanoma, lung", "setting": "intravenous, 0.037 MBq, 24 h", "tissue uptake [%ID/g]": "0.32 ± 0.19"}
{"SMILES": "CC(C)[C@H](NC(=O)[C@@H]1CCCN1C(=O)[C@H](CCCNC(=N)N)NC(=O)[C@H](CS)NC(=O)[C@H](Cc1c[nH]c2ccccc12)NC(=O)[C@H](CCCNC(=N)N)NC(=O)[C@@H](Cc1ccccc1)NC(=O)[C@H](Cc1c[nH]cn1)NC(=O)[C@H](CCC(=O)O)NC(=O)[C@H](CS)NC(=O)[C@H](CS)NC(=O)[C@@H]1CC(=O)N[C@@H](CCCNC(=N)N)C(=O)NCC(=O)N[C@@H](CC(=O)O)C(=O)N[C@H](Cc2ccc(O)cc2)C(=O)N1)C(N)=O [technetium-99m labelled]", "test system": "C57 mice B16/F1 melanoma female, tumor", "setting": "iv, 2 h, together with: NDP-MSH 10 µg co-injected", "tissue uptake [%ID/g]": "2.55 ± 0.07"}
{"SMILES": "O=C([O-])CN1CCN(CC(=O)[O-])CCN(CC(=O)[O-])CCN(CC(=O)[O-])CC1.[64Cu+2]", "test system": "healthy athymic nude mice, small intestine", "setting": "intravenous, 1 h", "tissue uptake [%ID/g]": 1.01}
{"SMILES": "CN1C(=O)[C@@H](Cc2ccc(O)c(I)c2)NC(=O)CNC(=O)[C@H](Cc2ccc3ccccc3c2)NC(=O)[C@H](CCCNC(=N)N)NC(=O)[C@H]1CCCNC(=O)c1ccc(CNC(=O)CN2CCN(CC(=O)O)CCN(CC(=O)O)CCN(CC(=O)O)CC2)cc1 [lutetium-177 labelled]", "assay": "measured: 177Lu radioactivity", "test system": "female CB-17 SCID mice, Daudi xenograft, tumor", "setting": "intravenous, 0.16 nmol per mouse, 1 h", "tissue uptake [%ID/g]": "12.4 ± 3.7"}
{"SMILES": "O=C([O-])CN1CCN(CC(=O)[O-])CCN(CC(=O)NCCc2ccc3c(c2)C2C=CCC2C(c2cc4c(cc2Br)OCO4)N3)CCN(CC(=O)[O-])CC1.[111In+3] (stereo not shown)", "test system": "mice with Hec50 tumour xenograft, urinary bladder", "setting": "4 h", "tissue uptake [%ID/g]": "0.36 ± 0.16"}
{"SMILES": "CCCC[C@H](NC(=O)CNC(=O)CNC(=O)CN1CCN(CC(=O)O)CCN(CC(=O)O)CC1)C(=O)N[C@H]1CC(=O)NCCCC[C@@H](C(N)=O)NC(=O)[C@H](Cc2c[nH]c3ccccc23)NC(=O)[C@H](CCCNC(=N)N)NC(=O)[C@@H](Cc2ccccc2)NC(=O)[C@H](Cc2c[nH]cn2)NC1=O [gallium-67 labelled]", "test system": "female C57 mice, B16/F1 melanoma, muscle", "setting": "intravenous, 0.037 MBq, 2 h", "tissue uptake [%ID/g]": "0.34 ± 0.12"}
{"SMILES": "CCCC[C@H](NC(=O)CN1CCC(NC(=O)CN2CCN(CC(=O)O)CCN(CC(=O)O)CCN(CC(=O)O)CC2)CC1)C(=O)N[C@H]1CC(=O)NCCCC[C@@H](C(N)=O)NC(=O)[C@H](Cc2c[nH]c3ccccc23)NC(=O)[C@H](CCCNC(=N)N)NC(=O)[C@@H](Cc2ccccc2)NC(=O)[C@H](Cc2c[nH]cn2)NC1=O [gallium-68 labelled]", "test system": "C57BL/6J mice male B16-F10 tumour, muscle", "setting": "1 h post injection, unblocked", "tissue uptake [%ID/g]": 0.2}
{"SMILES": "CC(C)[C@H](NC(=O)[C@@H]1CCCN1C(=O)[C@H](CCCNC(=N)N)NC(=O)[C@H](CS)NC(=O)[C@H](Cc1c[nH]c2ccccc12)NC(=O)[C@H](CCCNC(=N)N)NC(=O)[C@@H](Cc1ccccc1)NC(=O)[C@H](Cc1c[nH]cn1)NC(=O)[C@H](CCC(=O)O)NC(=O)[C@H](CS)NC(=O)[C@H](CS)NC(=O)CNC(=O)[C@@H]1CC(=O)N[C@@H](CCCNC(=N)N)C(=O)NCC(=O)N[C@@H](CC(=O)O)C(=O)N[C@H](Cc2ccc(O)cc2)C(=O)N1)C(N)=O [technetium-99m labelled]", "test system": "C57 mice B16/F1 melanoma female, kidneys", "setting": "iv, 0.037 MBq, 2 h", "tissue uptake [%ID/g]": "20.9 ± 4.51"}
{"SMILES": "N=C(N)NCCC[C@@H]1NC(=O)[C@H](CCCCNC(=O)CON=C[C@H](F)[C@@H](O)[C@H](O)[C@H](O)CO)NC(=O)[C@@H](Cc2ccc(O)cc2)NC(=O)[C@H](CC(=O)O)NC(=O)CNC1=O [fluorine-18 labelled]", "test system": "nude mice U-87 MG tumour, liver", "setting": "intravenous, 0.5 h", "tissue uptake [%ID/g]": "1.32 ± 1.3"}
{"SMILES": "NC12CNCCNCC(NCc3ccc(CNC(=O)CCCC(=O)NCc4ccc(-c5nncnn5)cc4)cc3)(CNCCNC1)CNCCNC2.[64Cu+2]", "assay": "biodistribution", "test system": "healthy athymic nude mice, large intestine", "setting": "1 h p.i.", "tissue uptake [%ID/g]": "0.07 ± 0.01"}
{"SMILES": "N=C(N)NCCC[C@H](NC(=O)CON=C[C@H](F)[C@@H](O)[C@H](O)[C@H](O)CO)C(=O)NCC(=O)N[C@@H](CC(=O)O)C(=O)O [fluorine-18 labelled]", "test system": "nude mice U-87 MG tumour, spleen", "setting": "intravenous, 0.5 h", "tissue uptake [%ID/g]": "0.49 ± 0.1"}
{"SMILES": "O=C([O-])c1cccc(CN(CCN(Cc2cn(Cc3ccccc3)nn2)Cc2cccc(C(=O)[O-])n2)Cc2cn(Cc3ccccc3)nn2)n1.[64Cu+2]", "test system": "healthy athymic nude mice, stomach", "setting": "intravenous, 4 h", "tissue uptake [%ID/g]": 5.11}
{"SMILES": "CCCC[C@@H]1NC(=O)[C@@H](NC(=O)[C@H](CCC(=O)O)NC(=O)CNC(=O)CN2CCN(CC(=O)O)CCN(CC(=O)O)CCN(CC(=O)O)CC2)CCCCNC(=O)C[C@@H](C(N)=O)NC(=O)[C@H](C(C)C)NC(=O)[C@@H]2CCCN2C(=O)[C@H](CCCNC(=N)N)NC(=O)CNC(=O)[C@H](Cc2c[nH]c3ccccc23)NC(=O)[C@H](CCCNC(=N)N)NC(=O)[C@@H](Cc2ccccc2)NC(=O)[C@H](Cc2c[nH]cn2)NC(=O)[C@H](CCC(=O)O)NC1=O [gallium-67 labelled]", "test system": "C57 mice with B16/F1 melanoma, liver", "setting": "intravenous, 24 h", "tissue uptake [%ID/g]": "0.24 ± 0.08"}
{"note": "Some of these lines once more:"}
{"SMILES": "N=C(N)NCCC[C@H](NC(=O)CON=C[C@H](F)[C@@H](O)[C@H](O)[C@H](O)CO)C(=O)NCC(=O)N[C@@H](CC(=O)O)C(=O)O [fluorine-18 labelled]", "test system": "nude mice U-87 MG tumour, spleen", "setting": "intravenous, 0.5 h", "tissue uptake [%ID/g]": "0.49 ± 0.1"}
{"SMILES": "CC(C)[C@H](NC(=O)[C@@H]1CCCN1C(=O)[C@H](CCCNC(=N)N)NC(=O)[C@H](CS)NC(=O)[C@H](Cc1c[nH]c2ccccc12)NC(=O)[C@H](CCCNC(=N)N)NC(=O)[C@@H](Cc1ccccc1)NC(=O)[C@H](Cc1c[nH]cn1)NC(=O)[C@H](CCC(=O)O)NC(=O)[C@H](CS)NC(=O)[C@H](CS)NC(=O)[C@@H]1CC(=O)N[C@@H](CCCNC(=N)N)C(=O)NCC(=O)N[C@@H](CC(=O)O)C(=O)N[C@H](Cc2ccc(O)cc2)C(=O)N1)C(N)=O [technetium-99m labelled]", "test system": "C57 mice B16/F1 melanoma female, tumor", "setting": "iv, 2 h, together with: NDP-MSH 10 µg co-injected", "tissue uptake [%ID/g]": "2.55 ± 0.07"}
